Measurements pooled from the literature.
A part holds a random share of what one study measured. “And” joins repeats or separate records; there may be more than shown.
Sequence of UniProt P42336 (whole entry, unmodified, looked up): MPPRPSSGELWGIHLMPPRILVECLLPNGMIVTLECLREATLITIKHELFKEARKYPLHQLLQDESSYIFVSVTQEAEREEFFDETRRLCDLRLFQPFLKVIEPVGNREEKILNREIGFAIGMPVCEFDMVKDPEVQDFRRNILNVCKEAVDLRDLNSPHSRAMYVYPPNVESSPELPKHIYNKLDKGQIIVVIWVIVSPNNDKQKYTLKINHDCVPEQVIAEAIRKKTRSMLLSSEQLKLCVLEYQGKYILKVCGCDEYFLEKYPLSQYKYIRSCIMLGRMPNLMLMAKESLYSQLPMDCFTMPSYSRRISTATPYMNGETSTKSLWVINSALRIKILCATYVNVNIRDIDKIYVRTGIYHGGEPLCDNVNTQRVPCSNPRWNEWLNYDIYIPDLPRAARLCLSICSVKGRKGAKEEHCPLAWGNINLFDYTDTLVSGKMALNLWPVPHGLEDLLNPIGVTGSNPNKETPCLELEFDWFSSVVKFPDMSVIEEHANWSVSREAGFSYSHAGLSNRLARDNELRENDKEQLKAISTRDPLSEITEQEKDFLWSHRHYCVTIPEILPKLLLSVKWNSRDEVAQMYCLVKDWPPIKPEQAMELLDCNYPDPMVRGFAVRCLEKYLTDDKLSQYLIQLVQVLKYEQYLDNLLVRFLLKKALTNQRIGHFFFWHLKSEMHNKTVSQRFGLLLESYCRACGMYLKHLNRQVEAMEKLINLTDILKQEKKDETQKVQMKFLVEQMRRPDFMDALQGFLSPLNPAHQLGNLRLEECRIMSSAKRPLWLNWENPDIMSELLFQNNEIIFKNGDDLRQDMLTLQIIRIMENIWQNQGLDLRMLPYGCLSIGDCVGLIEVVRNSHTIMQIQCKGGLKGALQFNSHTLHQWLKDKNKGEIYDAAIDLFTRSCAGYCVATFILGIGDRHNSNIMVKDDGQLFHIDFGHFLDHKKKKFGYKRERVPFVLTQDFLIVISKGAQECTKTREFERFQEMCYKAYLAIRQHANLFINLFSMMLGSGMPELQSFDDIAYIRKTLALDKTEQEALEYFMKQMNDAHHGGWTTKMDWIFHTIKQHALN
Sequence of UniProt P21709 (whole entry, looked up): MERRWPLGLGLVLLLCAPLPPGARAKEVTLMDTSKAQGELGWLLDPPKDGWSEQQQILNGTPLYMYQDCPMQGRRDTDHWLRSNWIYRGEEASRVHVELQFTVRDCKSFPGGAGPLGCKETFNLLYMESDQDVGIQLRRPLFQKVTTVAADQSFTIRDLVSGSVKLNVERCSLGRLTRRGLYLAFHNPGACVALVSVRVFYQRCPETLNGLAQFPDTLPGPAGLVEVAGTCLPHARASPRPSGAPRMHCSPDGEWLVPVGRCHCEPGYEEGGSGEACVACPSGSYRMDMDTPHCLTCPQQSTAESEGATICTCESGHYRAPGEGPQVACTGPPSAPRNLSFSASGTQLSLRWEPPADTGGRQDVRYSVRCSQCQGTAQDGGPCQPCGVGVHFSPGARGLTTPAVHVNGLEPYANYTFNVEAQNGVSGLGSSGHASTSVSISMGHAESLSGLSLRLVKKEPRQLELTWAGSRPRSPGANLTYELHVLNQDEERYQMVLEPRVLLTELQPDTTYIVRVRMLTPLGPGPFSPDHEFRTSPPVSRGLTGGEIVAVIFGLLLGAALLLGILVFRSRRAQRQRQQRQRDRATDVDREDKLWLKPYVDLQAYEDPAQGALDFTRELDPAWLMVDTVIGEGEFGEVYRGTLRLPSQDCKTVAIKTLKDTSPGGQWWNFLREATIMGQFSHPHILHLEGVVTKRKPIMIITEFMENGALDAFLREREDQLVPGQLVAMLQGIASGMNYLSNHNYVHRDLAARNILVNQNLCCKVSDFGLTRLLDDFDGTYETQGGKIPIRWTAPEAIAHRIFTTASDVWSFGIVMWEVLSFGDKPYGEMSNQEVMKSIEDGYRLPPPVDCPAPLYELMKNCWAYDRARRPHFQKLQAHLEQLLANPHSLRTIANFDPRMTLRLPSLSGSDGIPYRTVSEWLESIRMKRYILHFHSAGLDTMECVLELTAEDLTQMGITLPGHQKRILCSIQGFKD
Sequence of UniProt O00506 (whole entry, looked up): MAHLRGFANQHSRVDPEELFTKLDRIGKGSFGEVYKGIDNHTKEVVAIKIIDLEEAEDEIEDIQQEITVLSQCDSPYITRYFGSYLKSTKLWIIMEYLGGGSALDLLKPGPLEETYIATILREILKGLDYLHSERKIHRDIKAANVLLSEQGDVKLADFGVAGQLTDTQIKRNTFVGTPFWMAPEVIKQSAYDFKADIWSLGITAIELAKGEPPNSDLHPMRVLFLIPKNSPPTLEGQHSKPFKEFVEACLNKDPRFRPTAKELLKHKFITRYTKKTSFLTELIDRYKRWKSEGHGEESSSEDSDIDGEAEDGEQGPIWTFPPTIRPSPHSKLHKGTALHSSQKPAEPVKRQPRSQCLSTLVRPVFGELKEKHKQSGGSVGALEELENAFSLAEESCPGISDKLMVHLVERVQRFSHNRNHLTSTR
Sequence of UniProt Q05655 (whole entry, looked up): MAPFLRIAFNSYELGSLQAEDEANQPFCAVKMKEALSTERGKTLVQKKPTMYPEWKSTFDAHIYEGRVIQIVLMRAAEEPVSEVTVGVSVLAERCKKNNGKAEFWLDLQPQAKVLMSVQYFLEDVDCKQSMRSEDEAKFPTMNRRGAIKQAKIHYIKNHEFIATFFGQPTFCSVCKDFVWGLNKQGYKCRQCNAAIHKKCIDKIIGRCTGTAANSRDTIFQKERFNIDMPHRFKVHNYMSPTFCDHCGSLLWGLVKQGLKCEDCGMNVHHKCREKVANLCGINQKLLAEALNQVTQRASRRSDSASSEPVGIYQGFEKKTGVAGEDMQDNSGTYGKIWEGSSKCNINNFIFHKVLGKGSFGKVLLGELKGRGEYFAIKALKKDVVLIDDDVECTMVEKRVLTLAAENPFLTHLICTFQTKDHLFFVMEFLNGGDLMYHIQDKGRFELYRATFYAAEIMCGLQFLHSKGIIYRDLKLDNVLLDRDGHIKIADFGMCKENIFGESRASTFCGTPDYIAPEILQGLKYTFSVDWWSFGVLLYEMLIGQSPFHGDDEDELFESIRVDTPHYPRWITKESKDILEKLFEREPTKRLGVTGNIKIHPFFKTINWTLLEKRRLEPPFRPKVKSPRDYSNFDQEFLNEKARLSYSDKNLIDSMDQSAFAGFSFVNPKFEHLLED
Sequence of UniProt P35916 (whole entry, looked up): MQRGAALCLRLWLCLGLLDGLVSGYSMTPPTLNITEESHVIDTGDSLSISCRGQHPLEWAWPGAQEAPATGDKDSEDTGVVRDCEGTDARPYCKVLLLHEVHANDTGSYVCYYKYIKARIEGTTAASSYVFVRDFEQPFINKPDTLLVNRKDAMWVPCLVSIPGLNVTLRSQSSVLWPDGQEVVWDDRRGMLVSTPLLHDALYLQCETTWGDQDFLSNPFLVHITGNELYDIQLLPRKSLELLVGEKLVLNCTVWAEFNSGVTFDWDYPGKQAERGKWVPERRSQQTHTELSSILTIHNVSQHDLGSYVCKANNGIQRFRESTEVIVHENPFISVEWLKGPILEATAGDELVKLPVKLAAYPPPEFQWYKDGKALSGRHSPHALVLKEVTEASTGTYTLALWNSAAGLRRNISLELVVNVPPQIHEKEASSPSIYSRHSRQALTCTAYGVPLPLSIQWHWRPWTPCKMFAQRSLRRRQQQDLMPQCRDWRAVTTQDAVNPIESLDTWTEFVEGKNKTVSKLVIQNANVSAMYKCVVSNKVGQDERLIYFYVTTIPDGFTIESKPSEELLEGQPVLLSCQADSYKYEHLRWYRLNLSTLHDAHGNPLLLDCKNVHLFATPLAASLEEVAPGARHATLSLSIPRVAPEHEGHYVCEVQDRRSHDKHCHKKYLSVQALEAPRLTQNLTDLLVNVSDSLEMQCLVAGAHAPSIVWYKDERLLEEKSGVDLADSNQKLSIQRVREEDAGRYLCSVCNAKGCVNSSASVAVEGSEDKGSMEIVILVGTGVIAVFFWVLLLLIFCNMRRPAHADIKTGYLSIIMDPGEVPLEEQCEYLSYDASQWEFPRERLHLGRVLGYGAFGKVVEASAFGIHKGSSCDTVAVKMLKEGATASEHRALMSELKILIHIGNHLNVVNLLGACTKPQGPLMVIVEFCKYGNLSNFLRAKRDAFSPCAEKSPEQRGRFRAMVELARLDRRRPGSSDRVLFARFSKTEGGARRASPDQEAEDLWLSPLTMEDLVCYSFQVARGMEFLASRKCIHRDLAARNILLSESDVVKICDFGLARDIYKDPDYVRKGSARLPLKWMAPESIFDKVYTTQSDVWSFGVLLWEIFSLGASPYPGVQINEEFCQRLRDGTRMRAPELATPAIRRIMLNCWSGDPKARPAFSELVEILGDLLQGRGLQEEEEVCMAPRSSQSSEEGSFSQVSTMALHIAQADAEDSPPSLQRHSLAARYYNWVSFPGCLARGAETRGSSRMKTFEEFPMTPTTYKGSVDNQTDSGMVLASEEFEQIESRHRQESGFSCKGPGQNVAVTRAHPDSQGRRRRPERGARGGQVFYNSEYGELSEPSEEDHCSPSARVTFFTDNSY

Sample 1 — effect on: enzyme activity; mode: inhibitor; concentration: 0.5 µM; baseline: control
Target: Serine/threonine-protein kinase 4 (STK4, Homo sapiens, UniProt Q13043)
Target sequence (Q13043 1-487): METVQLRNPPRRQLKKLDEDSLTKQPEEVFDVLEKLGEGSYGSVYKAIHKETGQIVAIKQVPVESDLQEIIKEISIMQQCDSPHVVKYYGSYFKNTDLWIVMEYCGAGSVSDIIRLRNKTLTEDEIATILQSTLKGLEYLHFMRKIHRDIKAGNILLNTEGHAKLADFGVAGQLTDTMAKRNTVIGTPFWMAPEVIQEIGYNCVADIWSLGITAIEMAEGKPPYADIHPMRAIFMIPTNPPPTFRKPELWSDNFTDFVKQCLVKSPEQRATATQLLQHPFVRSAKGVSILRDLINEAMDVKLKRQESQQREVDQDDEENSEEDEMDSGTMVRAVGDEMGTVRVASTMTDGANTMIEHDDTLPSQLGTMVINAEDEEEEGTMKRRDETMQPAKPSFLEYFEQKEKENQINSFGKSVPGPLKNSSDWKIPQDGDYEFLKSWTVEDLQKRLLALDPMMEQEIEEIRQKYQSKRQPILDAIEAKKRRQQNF
With `CN1CCN(c2ccc3nc(-c4c(N)c5c(F)cccc5[nH]c4=O)[nH]c3c2)CC1` the remaining activity was 10%.
`O=C1Nc2ccccc2/C1=C\c1c(Cl)[nH]c2ccccc12` has a remaining activity of 91%.
`O=C1NC(=O)c2c1c1c3ccccc3[nH]c1n1cncc21` has a remaining activity of 42.7%.
The remaining activity of `O=C1NC(=O)c2c1c1c3ccccc3[nH]c1c1[nH]c3cc(Br)ccc3c21` is reported as 52%.
`COc1cccc(-c2cc(=O)c3ccccc3o2)c1N` has a remaining activity of 92.1%.
The remaining activity of `CCCNC(=O)Nc1ccc(Oc2ncnc3cc(OC)c(OC)cc23)cc1Cl` is reported as 92.8%.
`COc1ccc2c(c1)c(C1=C(c3c[nH]c4ccccc34)C(=O)NC1=O)cn2CCCN(C)C` gave a remaining activity of 65.2%.
`c1ccc(-c2n[nH]c3c2oc2ccccc23)cc1` gave a remaining activity of 99.8%.
The remaining activity of `O=C1Cc2c([nH]c3ccc(Br)cc23)-c2ccccc2N1` is reported as 81.8%.
`O=C(c1cc2cc(O)ccc2[nH]1)c1cc2cc(O)ccc2[nH]1` gave a remaining activity of 33.7%.
For `O=C1Nc2ccc(Br)cc2/C1=C/c1cc2c([nH]1)CCCC2`, the remaining activity was 44.1%.
For `N#Cc1cnc2cnc(NCc3cccnc3)cc2c1Nc1ccc(F)c(Cl)c1`, the remaining activity was 100%.
The remaining activity of `O=c1cc(N2CCOCC2)oc2c(-c3ccccc3)cccc12` is reported as 87.8%.
With `CN(C)S(=O)(=O)c1ccc2c(c1)/C(=C/c1cc3c([nH]1)CCCC3)C(=O)N2` the remaining activity was 13.1%.
With `Cc1cc(Nc2cc(N3CCN(C)CC3)nc(Sc3ccc(NC(=O)C4CC4)cc3)n2)[nH]n1` the remaining activity was 48.9%.
The remaining activity of `CCCCc1c(-c2ccc(OC)cc2)[nH]c2nccnc12` is reported as 82.2%.
With `COc1ccc(COc2ccc(Cc3cnc(N)nc3N)cc2OC)cc1` the remaining activity was 106%.
The remaining activity of `Cc1ccc(S(=O)(=O)/C=C/C#N)cc1` is reported as 94.7%.
The remaining activity of `Oc1cccc(-c2nc(N3CCOCC3)c3oc4ncccc4c3n2)c1` is reported as 93.3%.
`c1ccc2c(-c3ccncc3)c[nH]c2c1` has a remaining activity of 103%.

Sample 2
SMILES: CC(C)C[C@@H]1NC(=O)[C@@H](N(C)C(=O)[C@H](CC2CCC2)NC(=O)[C@@H]2C[C@@H](F)CN2C(=O)C2(C(F)(F)F)CC(F)(F)C2)CCCCNC(=O)C2(CC2)NC(=O)[C@H](Cc2cc(Cl)ccc2Cl)N(C)C1=O
The cell count was 0.684 and 0.961 and 0.956 (MDA-MB-231 DOX-inducible E2F1; 20 nM, 6 days, with: doxycycline; baseline: DMSO).
It gave 0.18 and 0.27 and 0.23 for cell count (NCI-H82; Vi-Cell counting; 20 µM, 6 days; baseline: DMSO).
It gave 0.302 and 0.185 for cell count (NCI-H446; Vi-Cell counting; 200 nM, 3 days, without Mps1 inhibitor; baseline: DMSO).
The cell count was 0.717 and 0.778 and 0.605 (NCI-H1299; Vi-Cell counting; 200 nM, 6 days; baseline: DMSO).
It gave 0.141 and 0.147 and 0.101 for cell count (NCI-H446 sgCtrl; dose-response; 6 nM, 6 d; baseline: DMSO-treated).
The cell count was 0.464 and 0.682 and 0.55 (Jurkat, doxycycline-inducible E2F1; 20 nM, 6 days, doxycycline added; baseline: DMSO).
It gave 0.53 and 0.353 and 0.435 for cell count (Jurkat, doxycycline-inducible E2F1; 60 nM, 6 days, doxycycline added; baseline: DMSO).
NCI-H446; Vi-Cell counting; 60 nM, 3 days, without Mps1 inhibitor; baseline: DMSO — cell count: 0.246 and 0.258.

Sample 3 — concentration: 1 µM
SMILES: C[C@@H](c1cccc(C#N)c1)n1cc(Cl)cc(C(N)=O)c1=N
SIK3 (Homo sapiens, UniProt Q9Y2K2); cell-free assay, competition with immobilised ligand — remaining binding: 94%.
FLT4 (Homo sapiens, UniProt P35916); cell-free assay, competition with immobilised ligand — remaining binding: 89%.
STK25 (Homo sapiens, UniProt O00506); cell-free assay, competition with immobilised ligand — remaining binding: 100%.
PIK3CA (Homo sapiens, UniProt P42336, E542K); cell-free assay, competition with immobilised ligand — remaining binding: 89%.
It gave 77% for remaining binding (PRKCD (Homo sapiens, UniProt Q05655); cell-free assay, competition with immobilised ligand).
The remaining binding was 85% (BLK (Homo sapiens, UniProt P51451); cell-free assay, competition with immobilised ligand).
It gave 100% for remaining binding (FGFR3 (Homo sapiens, UniProt P22607); cell-free assay, competition with immobilised ligand).
For MAP2K3 (Homo sapiens, UniProt P46734); cell-free assay, competition with immobilised ligand: remaining binding read 67%.
The remaining binding was 77% (EPHA1 (Homo sapiens, UniProt P21709); cell-free assay, competition with immobilised ligand).
CAMKK1 (Homo sapiens, UniProt Q8N5S9); cell-free assay, competition with immobilised ligand — remaining binding: 100%.
The remaining binding was 98% (PRKCH (Homo sapiens, UniProt P24723); cell-free assay, competition with immobilised ligand).
It gave 100% for remaining binding (PRKAA1 (Homo sapiens, UniProt Q13131); cell-free assay, competition with immobilised ligand).
The remaining binding was 85% (CDKL3 (Homo sapiens, UniProt Q8IVW4); binding, competition with immobilised ligand).
AKT1 (Homo sapiens, UniProt P31749); cell-free assay, competition with immobilised ligand — remaining binding: 100%.
The remaining binding was 100% (Tyrosine-protein kinase ABL1, phosphorylated (ABL1, Homo sapiens, UniProt P00519, F317I); binding).
CSNK1D (Homo sapiens, UniProt P48730); cell-free assay, competition with immobilised ligand — remaining binding: 100%.

Sample 4 — effect on: enzyme activity; mode: inhibitor; concentration: 10 µM
Target: Calcium/calmodulin-dependent protein kinase type II subunit alpha (CAMK2A, Homo sapiens, UniProt Q9UQM7)
Sequence of UniProt Q9UQM7 (whole entry, looked up): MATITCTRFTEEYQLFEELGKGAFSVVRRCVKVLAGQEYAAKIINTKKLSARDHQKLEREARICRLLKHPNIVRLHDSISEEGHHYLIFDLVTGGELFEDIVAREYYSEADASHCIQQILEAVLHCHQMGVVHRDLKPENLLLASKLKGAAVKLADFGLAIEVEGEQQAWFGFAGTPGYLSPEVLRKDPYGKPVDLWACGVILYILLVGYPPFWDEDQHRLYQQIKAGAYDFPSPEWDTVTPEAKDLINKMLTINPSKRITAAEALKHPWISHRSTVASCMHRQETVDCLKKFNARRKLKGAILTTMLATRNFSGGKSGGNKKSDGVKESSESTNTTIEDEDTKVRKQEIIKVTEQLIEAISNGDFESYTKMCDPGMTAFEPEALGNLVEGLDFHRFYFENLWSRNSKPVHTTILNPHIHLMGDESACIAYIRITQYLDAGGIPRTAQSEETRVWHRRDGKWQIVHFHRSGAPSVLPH
For `O=C(O)c1ccncc1`, the inhibition was -17%.
The inhibition of `COc1ccc2c(=O)cc(-c3ccccc3)oc2c1` is reported as -27%.
`N[C@H](CS)C(=O)O` gave an inhibition of -4%.
`Nc1cc[nH]c(=O)n1` has an inhibition of -15%.
`OCc1ccoc1` has an inhibition of -3%.
`CNc1ccc(/C=C/c2ccc(OCCOCCOCCF)nc2)cc1` gave an inhibition of 5%.
For `NCCC[C@@H](N)C(=O)O`, the inhibition was 13%.
`CC(C)Nc1cccnc1N1CCN(C(=O)c2cc3cc(NS(C)(=O)=O)ccc3[nH]2)CC1` gave an inhibition of -7%.
`C[S+](CCC(N)C(=O)[O-])C[C@H]1O[C@@H](n2cnc3c(N)ncnc32)[C@H](O)[C@@H]1O` (mixture of isomers) has an inhibition of -30%.
`CC[C@@]1(O)C(=O)OCc2c1cc1n(c2=O)Cc2cc3c([N+](=O)[O-])cccc3nc2-1` has an inhibition of -8%.

Excerpt of the above (sample 3):
FLT4 (Homo sapiens, UniProt P35916); cell-free assay, competition with immobilised ligand — remaining binding: 89%.
STK25 (Homo sapiens, UniProt O00506); cell-free assay, competition with immobilised ligand — remaining binding: 100%.
The remaining binding was 85% (CDKL3 (Homo sapiens, UniProt Q8IVW4); binding, competition with immobilised ligand).
CAMKK1 (Homo sapiens, UniProt Q8N5S9); cell-free assay, competition with immobilised ligand — remaining binding: 100%.
It gave 100% for remaining binding (PRKAA1 (Homo sapiens, UniProt Q13131); cell-free assay, competition with immobilised ligand).
AKT1 (Homo sapiens, UniProt P31749); cell-free assay, competition with immobilised ligand — remaining binding: 100%.
PIK3CA (Homo sapiens, UniProt P42336, E542K); cell-free assay, competition with immobilised ligand — remaining binding: 89%.
It gave 77% for remaining binding (PRKCD (Homo sapiens, UniProt Q05655); cell-free assay, competition with immobilised ligand).
